Experimental data of several laboratories.
Each line is one published result; not all experiments were run side by side. Values joined by “and” are separate records of one study, mostly repeats; a detail may differ. ± gives the spread as reported.

Under “normalised protein abundance”, COc1cc2c(NC3CCN(C(C)C)CC3)cc(N3CCOCC3)nc2cc1OCCCN1CCCC1 is recorded as 0.138 and 0.109 and 0.0955 and 0.16 and 0.134 and 0.0732 and 0.0401 and 0.0519 (TMT quantitative proteomics, refers to: NPTXR; 5xFAD mice, hippocampus; dose not given).
COC1OC(C)C(O)C(OC2OC(C)C(O)C(OC3OC(C)C(O)C(OC4OC(C)C(O)C(OC5OC(C)C(O)C(OC6OC(C)C(O)C(OC7OC(C)C(O)C(OC8OC(C)C(O)C(OS(=O)(=O)O)C8OS(=O)(=O)O)C7OS(=O)(=O)O)C6OS(=O)(=O)O)C5OS(=O)(=O)O)C4OS(=O)(=O)O)C3OS(=O)(=O)O)C2OS(=O)(=O)O)C1OS(=O)(=O)O (stereo not shown) gave a thrombin time of 10.2 ± 0.4 s (human plasma; 128 µg/mL).
N#Cc1ccc(-c2cnc(C(=O)CCCCCCc3ccccc3)o2)nc1: “duration of brain lipid amide elevation” greater than 6 h (refers to: AEA, OEA, PEA; mouse, brain; i.p., dose not given, 6 h time course).
Under “log2 fold change”, Cc1ncsc1-c1ccc(C(C)NC(=O)C2CC(O)CN2C(=O)C(NC(=O)CCCCCCCCCCN2CCCC(Nc3ncc(Cl)c(Nc4ccccc4S(=O)(=O)C(C)C)n3)C2)C(C)(C)C)cc1 (stereo not shown) is recorded as -1.07 (22Rv1; RNA-seq, refers to: LTO1 mRNA; concentration not given; relative to: DMSO).
The IOP of NC[C@@H](C(=O)Nc1ccc(-c2cn[nH]c2)cc1)c1ccccc1 is reported as 18.3 mmHg (tonometry; Macaca cyclopis, ocular normotensive; ocular, 0.1%, 24 h).
For COC1CN([C@H]2CC[C@H]([C@@]3(C)Oc4c(Cl)cc(C(=O)NCc5c(SC)cc(C)[nH]c5=O)c(C)c4O3)CC2)C1, “log2 fold change” read 1.23 (RNA-seq, refers to: TRPV4 mouse homolog; mouse, HT-1376 xenograft, whole blood; dose not given; relative to: vehicle).
CN1CCC[C@]1(C)/C=C/S(=O)(=O)NC(=O)Nc1c2c(cc3c1CCC3)CCC2 gave an IL-1β inhibition of 97.3% (human, whole blood ex vivo; 50 mg single dose, 12 h, single ascending dose, with: LPS and ATP).
COc1ccc(C(=O)CCc2cc(C(CCc3ccc(O)cc3OC)c3ccc(O)cc3)c(O)cc2OC)cc1 (racemic) has a PGE2 level of 59 ± 18 pg/mL (human blood; 3 µM, with: A23187).
Under “thrombin time prolongation”, COC1OC(C)C(OS(=O)(=O)O)C(OC2OC(C)C(OS(=O)(=O)O)C(OC3OC(C)C(OS(=O)(=O)O)C(OC4OC(C)C(OS(=O)(=O)O)C(OC5OC(C)C(OS(=O)(=O)O)C(OC6OC(C)C(OS(=O)(=O)O)C(OC7OC(C)C(OS(=O)(=O)O)C(OS(=O)(=O)O)C7OS(=O)(=O)O)C6OS(=O)(=O)O)C5OS(=O)(=O)O)C4OS(=O)(=O)O)C3OS(=O)(=O)O)C2OS(=O)(=O)O)C1OS(=O)(=O)O (stereo not shown) is recorded as 1 fold (human plasma; 128 µg/mL; relative to: control).
With COc1cc(O)ccc1CCC(c1ccc(O)cc1)c1cc2c(c(C)c1O)OC(c1ccc(O)cc1)CC2 (mixture of isomers) the amount was 3440 ± 764 pg/mL blood (refers to: 15-HETE; human whole blood; 30 µM, with: Escherichia coli).
Under “thrombin time prolongation”, COC1OC(C)C(OS(=O)(=O)O)C(OC2OC(C)C(OS(=O)(=O)O)C(OC3OC(C)C(OS(=O)(=O)O)C(OS(=O)(=O)O)C3O)C2O)C1O (stereo not shown) is recorded as 0.9 fold (human plasma; 128 µg/mL; relative to: control).
Under “aggregation impedance AUC”, O=C(N[C@@H](Cc1ccc(OCCCCC2CCNCC2)cc1)C(=O)O)c1nc2ccccc2o1.O=C(O)C(F)(F)F is recorded as 35.3 a.u. and 42.2 a.u. and 46.5 a.u. and 31.8 a.u. and 37.3 a.u. (platelet aggregation, inhibitor, impedance aggregometry; human, whole blood, 1:1 saline; 25 nM, 6 min, 37 °C, with: ADP 20 µM; higher = more aggregation).
For COC1OC(C)C(OC2OC(C)C(O)C(OC3OC(C)C(OC4OC(C)C(O)C(OC5OC(C)C(OC6OC(C)C(O)C(OC7OC(C)C(OC8OC(C)C(O)C(OC9OC(C)C(OC%10OC(C)C(O)C(OS(=O)(=O)O)C%10OS(=O)(=O)O)C(OS(=O)(=O)O)C9OS(=O)(=O)O)C8OS(=O)(=O)O)C(OS(=O)(=O)O)C7OS(=O)(=O)O)C6OS(=O)(=O)O)C(OS(=O)(=O)O)C5OS(=O)(=O)O)C4OS(=O)(=O)O)C(OS(=O)(=O)O)C3OS(=O)(=O)O)C2OS(=O)(=O)O)C(OS(=O)(=O)O)C1OS(=O)(=O)O (stereo not shown), “thrombin time prolongation” read 1 fold (human plasma; 128 µg/mL; relative to: control).
CC(=O)[O-].O.O.[O-]c1ccc(Br)cc1C=NCCN1CCOCC1.[Zn+2] gave an inhibition of 40.2% (DPPH radical scavenging; 160 µM).
COC1OC(C)C(OS(=O)(=O)O)C(OC2OC(C)C(OS(=O)(=O)O)C(OC3OC(C)C(OS(=O)(=O)O)C(OC4OC(C)C(OS(=O)(=O)O)C(OC5OC(C)C(OS(=O)(=O)O)C(OS(=O)(=O)O)C5O)C4O)C3O)C2O)C1O (stereo not shown): “thrombin time prolongation” 0.9 fold (human plasma; 128 µg/mL; relative to: control).
With Cc1ccc(N(O)/N=N/c2ccc(S(=O)(=O)Nc3nccs3)cc2)cc1 the inhibition was 30.2% (DPPH scavenging, absorbance; 120 µg/mL).

Excerpt of the above:
Under “thrombin time prolongation”, COC1OC(C)C(OS(=O)(=O)O)C(OC2OC(C)C(OS(=O)(=O)O)C(OC3OC(C)C(OS(=O)(=O)O)C(OS(=O)(=O)O)C3O)C2O)C1O (stereo not shown) is recorded as 0.9 fold (human plasma; 128 µg/mL; relative to: control).
Under “aggregation impedance AUC”, O=C(N[C@@H](Cc1ccc(OCCCCC2CCNCC2)cc1)C(=O)O)c1nc2ccccc2o1.O=C(O)C(F)(F)F is recorded as 35.3 a.u. and 42.2 a.u. and 46.5 a.u. and 31.8 a.u. and 37.3 a.u. (platelet aggregation, inhibitor, impedance aggregometry; human, whole blood, 1:1 saline; 25 nM, 6 min, 37 °C, with: ADP 20 µM; higher = more aggregation).
